Measured values pooled from the literature.
Compare with care: the assays were run in different laboratories. “And” joins repeats or separate records; there may be more than shown. ± gives the spread as reported.

CC(C)(Nc1nc(N2CCNCC2)nc2ccccc12)c1ccccc1  maximum response (Vero-E6; CellTiter-Glo ATP; 72 h, second round 5-point; reference: DMSO 0%, hyamine -100%, more negative, more toxic): -4.05%
COc1ccc([C@H]2COc3cc(O)ccc3C2)c(O)c1  cytotoxicity (Calu-3; 50 µM): 20%
CN[C@@H]1[C@@H](O)[C@@H](O[C@@H]2[C@@H](O)[C@H](O[C@H]3O[C@H]([C@@H](C)O)[C@@H](O)[C@H](O)[C@H]3N)[C@@H](N)C[C@H]2N)OC[C@]1(C)O  25% lethal concentration (NIH 3T3; 72 h, 10% fetal bovine serum): 212 ± 8.6 µM
CC(C)C[C@@H](N)C(=O)N[C@H](CC(C)C)C(=O)N[C@H](Cc1ccccc1)C(=O)N[C@H](Cc1ccccc1)C(=O)N[C@H](C)C(=O)N[C@H](CCC(=O)O)C(N)=O  viability (NGF-differentiated PC-12 neurons; 10 µM, 24 h; reference: untreated): 99.9%
CC[C@H]1CN2CCc3cc(OC)c(OC)cc3[C@@H]2C[C@@H]1C[C@H]1NCCc2cc(OC)c(OC)cc21  selectivity index (differentiated THP-1; 72 h; reference: THP-1 CC50 over EC50): 8
CC(C)C[C@@H](N)C(=O)N1CCC[C@@H]1C(=O)N[C@H](Cc1ccccc1)C(=O)N[C@H](Cc1ccccc1)C(=O)N[C@H](C)C(=O)N[C@H](CCC(=O)O)C(N)=O  viability (NGF-differentiated PC-12 neurons; 160 µM, 24 h; reference: untreated): 91.7%
COc1cc(-c2nn3c(Cn4nnc5ccccc54)nnc3s2)cc(OC)c1OC  CC50 (HEp-2; cytotoxicity): > 100 µM
CC(C)C[C@H](NC(=O)[C@H](C)NC(=O)[C@@H](NC(=O)[C@H](CCCNC(=N)N)NC(=O)[C@H](CC(C)C)NC(=O)[C@H](Cc1c[nH]c2ccccc12)NC(=O)[C@@H]1CCCN1C(=O)[C@@H](N)CCCCN)C(C)C)C(=O)N[C@@H](CS)C(=O)N1CCC[C@H]1C(=O)NCC(=O)O  viability (HEp-2; WST-1; 256 µM, 24 h): 100% and 98.9% and 103%
Cc1cnc(Nc2ccnc3ccc(-c4ccc(S(=O)(=O)N5CCOCC5)cc4)cc23)s1  TC50 (NIH 3T3; cytotoxicity, PrestoBlue; 96 h, 2% FBS): > 20 µM
Cc1ccc2[nH]c3c(c2c1)CCCC3NCCCCc1ccccc1 (stereo not drawn)  non-viable cells (A549; 50 µM, 23 h): 18.1 ± 15.2%
Cc1ccc2nc(C3CCCN(Cc4cccc(-c5cccnc5)c4)C3)[nH]c(=O)c2c1 (stereo not drawn)  cytotoxicity efficacy (Vero-E6; CellTiter-Glo ATP; concentration not given, 72 h, retest 8-point duplicates; reference: DMSO 0%, hyamine -100%, more negative, more toxic): 0%
CC(c1ccccc1)(c1ccc(O)cc1)c1ccc(O)cc1  viable cells (HepG2 spheroids, dissociated; annexin V-FITC/PI flow cytometry; 0.10 µM, 96 h): 32 ± 18.2%
CN1CCCN(S(=O)(=O)c2ccc(-c3ccc4ccnc(Nc5ccc(OCc6cccc(F)c6)c(Cl)c5)c4c3)cc2)CC1  TC50 (NIH 3T3; PrestoBlue; 2% FBS medium; 96 h): 25 µM
COc1ccc(Nc2nn3c(-c4ccccc4)ccnc3c2C(=O)Nc2ccc(Cl)cc2)cc1  viability (WI-38; MTT; serum-free medium; 62.50 µg/mL, 48 h): 89.8%
Clc1cccc(-c2nn3c(Cn4nnc5ccccc54)nnc3s2)c1  CC50 (HEp-2; cytotoxicity): > 100 µM
Oc1ccc(C(c2ccc(O)cc2)(C(F)(F)F)C(F)(F)F)cc1  mitotic cells (HepG2 spheroids; flow cytometry, refers to: phospho-histone H3; 40 µM, 24 h; reference: solvent control): 5.26 fold
CCN(CC)CCNC(=O)c1cc(-c2ccc(Br)s2)nc2ccccc12  cytotoxicity efficacy (Vero-E6; CellTiter-Glo ATP; concentration not given, 72 h, first round 5-point; reference: DMSO 0%, hyamine -100%, more negative, more toxic): -15.2%
O=S(=O)(c1ccc(-c2ccc3nccc(Nc4cccnc4)c3c2)cc1)N1CCOCC1  TC50 (NIH 3T3; cytotoxicity, PrestoBlue; 96 h, 2% FBS): > 20 µM
Fc1cccc(COc2ccc(Nc3ccnc4cc(-c5cccc(N6CCOCC6)c5)ccc34)cc2Cl)c1  TC50 (NIH 3T3; PrestoBlue; 2% FBS medium; 96 h): 11 µM
O=[N+]([O-])c1ccc(-c2nn(-c3ccccc3)c3sc(NC(c4ccccc4O)P(=O)(Oc4ccccc4)Oc4ccccc4)nc23)cc1 (stereo not drawn)  viability (BNL mouse liver cells; SRB; 1 µM, 10% fetal bovine serum): 97.6%
Cc1ccc2c(NC(C)c3ccccc3)nc(N3CCNCC3)nc2c1 (stereo not drawn)  cytotoxicity efficacy (Vero-E6; CellTiter-Glo ATP; concentration not given, 72 h, retest 8-point duplicates; reference: DMSO 0%, hyamine -100%, more negative, more toxic): -14.4%
CC(C)C[C@@H](NC(=O)[C@H](N)CCCCN)C(=O)N[C@H](CC(C)C)C(=O)N[C@H](Cc1ccccc1)C(=O)N[C@H](Cc1ccccc1)C(=O)N[C@H](C)C(=O)N[C@H](CCC(=O)O)C(N)=O  viability (NGF-differentiated PC-12 neurons; 5 µM, 24 h; reference: untreated): 100%
Oc1ccccc1-c1nc(-c2cccs2)c(-c2cccs2)[nH]1  cytotoxicity efficacy (Vero-E6; CellTiter-Glo ATP; concentration not given, 72 h, first round 5-point; reference: DMSO 0%, hyamine -100%, more negative, more toxic): -16.9%
CC(C)C[C@@H](N)C(=O)N[C@H](Cc1ccccc1)C(=O)N[C@H](Cc1ccccc1)C(=O)N[C@H](C)C(N)=O  viability (NGF-differentiated PC-12 neurons; 80 µM, 24 h; reference: untreated): 85.6%
Brc1ccc(CCNC2CCCc3c2[nH]c2ccc(-c4ccccc4)cc32)cc1 (stereo not drawn)  non-viable cells (A549; 50 µM, 23 h): 95.2 ± 4.8%
CC(C)C[C@@H](NC(=O)[C@H](N)CCCCN)C(=O)N[C@H](CC(C)C)C(=O)N[C@H](Cc1ccccc1)C(N)=O  viability (NGF-differentiated PC-12 neurons; 10 µM, 24 h; reference: untreated): 100%
O[C@H]1[C@H]2c3cc4c(cc3CN3CCC(=C[C@@H]1O)[C@H]23)OCO4  CC50 (Huh-7.5.1; cell viability, ATPlite): > 31.6 µM
c1ccc2c(c1)ncn2Cc1nnc2sc(-c3ccc4c(c3)OCCO4)nn12  CC50 (HEp-2; cytotoxicity): 12.6 µM
COc1ccc(-c2cn3c(n2)sc2cc(C(=O)NCCCN4CCCCCC4)ccc23)cc1  cytotoxicity efficacy (Vero-E6; CellTiter-Glo ATP; concentration not given, 72 h, retest 8-point duplicates; reference: DMSO 0%, hyamine -100%, more negative, more toxic): -32.3%
O=c1ccc2ccccc2o1  point of departure (HepaRG 3D spheroids; DNA structure; 72 h, high-content imaging): 866 µM
CN(CC[C@H](Oc1cccc2ccccc12)c1cccs1)N=O  relative survival (TK6; 2.5 µM, 4 h, together with: hamster liver S9; reference: vehicle): 65.6%
COc1ccc(N2CCN(CCCNC(=O)c3cc(Nc4ccc(OC)cc4OC)nc4ccccc34)CC2)cc1  cytotoxicity efficacy (Vero-E6; CellTiter-Glo ATP; concentration not given, 72 h, second round 5-point; reference: DMSO 0%, hyamine -100%, more negative, more toxic): -14.7%
CC(C)C[C@@H](NC(=O)[C@H](N)CCCCN)C(=O)N1CCC[C@@H]1C(=O)N[C@H](Cc1ccccc1)C(=O)N[C@H](Cc1ccccc1)C(=O)N[C@H](C)C(=O)N[C@H](CCC(=O)O)C(N)=O  viability (NGF-differentiated PC-12 neurons; 10 µM, 24 h; reference: untreated): 98.1%
CN(CCC=C1c2ccccc2CCc2ccccc21)N=O  relative survival (TK6; 1.25 µM, 4 h, together with: hamster liver S9; reference: vehicle): 103%
CC[C@H](C)[C@H](NC(=O)[C@H](C)NC(=O)[C@H](CCCNC(=N)N)NC(=O)[C@H](CCCNC(=N)N)NC(=O)[C@@H](NC(=O)[C@H](CO)NC(=O)[C@H](CC(N)=O)NC(=O)[C@@H](NC(=O)[C@H](Cc1ccccc1)NC(=O)[C@H](CO)NC(=O)[C@H](CCCCN)NC(=O)[C@@H](NC(=O)[C@H](Cc1ccccc1)NC(=O)[C@H](CCCCN)NC(=O)[C@@H](N)C(C)C)C(C)C)[C@@H](C)CC)[C@@H](C)CC)C(=O)N[C@@H](CC(N)=O)C(=O)N[C@@H](CCCCN)C(=O)N[C@@H](Cc1ccc(O)cc1)C(=O)N1CCC[C@H]1C(=O)N1CCC[C@H]1C(=O)N[C@H](C(=O)N[C@@H](CC(N)=O)C(=O)N[C@@H](CC(C)C)C(=O)N[C@@H](CCCCN)C(=O)N[C@H](C(=O)N[C@@H](CCCCN)C(=O)N[C@@H](CS)C(=O)N[C@@H](CC(N)=O)C(=O)N[C@@H](CCCNC(=N)N)C(=O)N[C@@H](CC(C)C)C(=O)N[C@@H](CC(N)=O)C(=O)N[C@@H](CO)C(=O)N[C@H](C(=O)N[C@@H](CC(=O)O)C(=O)N1CCC[C@H]1C(=O)N[C@@H](CCCCN)C(=O)N[C@@H](CCC(N)=O)C(=O)N1CCC[C@H]1C(=O)N1CCC[C@H]1C(=O)N[C@@H](CCCNC(=N)N)C(=O)N1CCC[C@H]1C(=O)N[C@@H](Cc1ccccc1)C(=O)N[C@@H](CCCNC(=N)N)C(=O)N[C@@H](CO)C(=O)N[C@@H](Cc1ccccc1)C(=O)N[C@H](C(=O)O)C(C)C)[C@@H](C)CC)[C@@H](C)CC)[C@@H](C)CC  CC50 (THP-1, PMA-differentiated; cell viability, MTT): 43 µM
O=S(=O)(c1ccc(O)cc1)c1ccc(O)cc1  necrotic cells (HepG2 spheroids; annexin V-FITC/PI flow cytometry; 0.1 µM, 24 h): 7.29 ± 0.4%
[Cl][Cd][Cl]  micronucleated cells (HepaRG; maximum tested): 0.7%
CCc1nnc(Nc2ccnc3ccc(-c4ccc(S(=O)(=O)N5CCOCC5)cc4)cc23)s1  TC50 (NIH 3T3; cytotoxicity, PrestoBlue; 96 h, 2% FBS): > 20 µM
Cc1cc(C)cc(-c2ccc(CN3CCCC3C(=O)NCc3cccc(F)c3)cc2)c1 (stereo not drawn)  maximum response (Vero-E6; CellTiter-Glo ATP; 72 h, first round 5-point; reference: DMSO 0%, hyamine -100%, more negative, more toxic): -12.8%
Cc1nnc(Nc2ccnc3ccc(-c4ccc(S(=O)(=O)N5CCOCC5)cc4)cc23)nc1C  TC50 (NIH 3T3; cytotoxicity, PrestoBlue; 96 h, 2% FBS): > 20 µM
CC(C)C[C@@H](NC(=O)[C@H](N)CCCCN)C(=O)N[C@@H](C(=O)N[C@H](Cc1ccccc1)C(=O)N[C@H](Cc1ccccc1)C(N)=O)C(C)C  viability (NGF-differentiated PC-12 neurons; 80 µM, 24 h; reference: untreated): 100%
CSc1ccc(N(Cc2cc(Cl)cs2)C(=O)Cc2cncc3ccccc23)cc1  CC50 (Calu-3; 48 h): 84.1 µM
Oc1ccc(C2(c3ccc(O)cc3)c3ccccc3-c3ccccc32)cc1  necrotic cells (HepG2 spheroids; annexin V-FITC/PI flow cytometry; 0.01 µM, 96 h): 39.9 ± 24.9%
Cc1ccc(N)cc1N  micronucleated cells (HepaRG; maximum tested, 24 (unit not given)): 0.4%
CC(C)C[C@@H](NC(=O)[C@H](N)CCCCN)C(=O)N[C@H](CC(C)C)C(=O)N[C@H](Cc1ccccc1)C(=O)N[C@H](Cc1ccccc1)C(=O)N[C@H](C)C(N)=O  viability (NGF-differentiated PC-12 neurons; 80 µM, 24 h; reference: untreated): 92.1%
CN(C)N=O  micronucleus fold increase (HepaRG; concentration not given, highest tested concentration; reference: vehicle): 3 fold
Cc1cc(C(C)(C)c2ccc(O)c(C)c2)ccc1O  late apoptotic cells (HepG2 spheroids; annexin V-FITC/PI flow cytometry; 10 µM, 24 h): 9 ± 2.55%
C/C=C(/C)C(=O)OC[C@H]1[C@@H](Cc2ccc(C(F)(F)F)cc2)CO[C@@H]1c1ccccc1  LDH release (rat aortic VSMCs; 30 µM, 24.5 h): 6 ± 2.4%

Excerpt of the above:
CC[C@H]1CN2CCc3cc(OC)c(OC)cc3[C@@H]2C[C@@H]1C[C@H]1NCCc2cc(OC)c(OC)cc21  selectivity index (differentiated THP-1; 72 h; reference: THP-1 CC50 over EC50): 8
CC(C)C[C@@H](N)C(=O)N1CCC[C@@H]1C(=O)N[C@H](Cc1ccccc1)C(=O)N[C@H](Cc1ccccc1)C(=O)N[C@H](C)C(=O)N[C@H](CCC(=O)O)C(N)=O  viability (NGF-differentiated PC-12 neurons; 160 µM, 24 h; reference: untreated): 91.7%
COc1cc(-c2nn3c(Cn4nnc5ccccc54)nnc3s2)cc(OC)c1OC  CC50 (HEp-2; cytotoxicity): > 100 µM
CC(C)C[C@H](NC(=O)[C@H](C)NC(=O)[C@@H](NC(=O)[C@H](CCCNC(=N)N)NC(=O)[C@H](CC(C)C)NC(=O)[C@H](Cc1c[nH]c2ccccc12)NC(=O)[C@@H]1CCCN1C(=O)[C@@H](N)CCCCN)C(C)C)C(=O)N[C@@H](CS)C(=O)N1CCC[C@H]1C(=O)NCC(=O)O  viability (HEp-2; WST-1; 256 µM, 24 h): 100% and 98.9% and 103%
Cc1cnc(Nc2ccnc3ccc(-c4ccc(S(=O)(=O)N5CCOCC5)cc4)cc23)s1  TC50 (NIH 3T3; cytotoxicity, PrestoBlue; 96 h, 2% FBS): > 20 µM
Cc1ccc2[nH]c3c(c2c1)CCCC3NCCCCc1ccccc1 (stereo not drawn)  non-viable cells (A549; 50 µM, 23 h): 18.1 ± 15.2%
